# Experimental data from different studies.
# Lines come from different studies, so protocols differ. “And” joins repeats or separate records; there may be more than shown.
# Cell line: SNB-75
Structure (SMILES),assay,setting,scale,quantity,result
CCN(CC)c1ccc(C=NNC(=O)CSc2nc3ccccc3c(=O)n2Cc2ccc(S(N)(=O)=O)cc2)c(O)c1,NCI five-dose screen,,,TGI,> 100000 nM
CCCN1CCN(c2ccc3[nH]c(-c4ccc5[nH]c(-c6ccc(C(F)(F)F)cc6)nc5c4)nc3c2)CC1,SRB,"10 µM, 48 h",,growth percent,32.5%
O=C1NCCc2[nH]c(-c3ccncc3)cc21,MTS,NCI60 panel,,IC50,6140 nM
CSc1nc(-c2ccc(Cl)cc2)c2c(NC(=O)c3ccccc3)nnc-2[nH]1,SRB,"10 µM, NCI60 single-dose screen",relative to: untreated,cell growth,95.3%
C#C[C@@]1(O)[C@@H](CO)O[C@@H](n2cc(F)c3c(N)ncnc32)[C@@H]1O,SRB,NCI-60 screen,,TGI,2320 nM
Cc1cc(C)n(C(=S)[S][Au][PH](CCCCCC[PH]([Au][S]C(=S)n2nc(C)cc2C)(c2ccccc2)c2ccccc2)(c2ccccc2)c2ccccc2)n1,"cell growth, NCI-60 screen",CNS cancer,,log10 TGI,> -4
CCOC(=O)CSc1nc(-c2ccc(Cl)cc2)c2c(NC(=O)c3ccccc3)nnc-2[nH]1,SRB,"10 µM, NCI60 single-dose screen",relative to: untreated,cell growth,84.7%
CCCCN1CCN(c2ccc3[nH]c(-c4ccc5[nH]c(-c6ccc(OCC)cc6)nc5c4)nc3c2)CC1,SRB,"10 µM, 48 h",,growth percent,60%
Cn1cncc1C1=CN(c2ncnc3[nH]cnc23)CCS1,,CNS cancer,,GI50,4900 nM
CCCCN1CCN(c2ccc3[nH]c(-c4ccc5[nH]c(-c6ccc(C(F)(F)F)cc6)nc5c4)nc3c2)CC1,SRB,"10 µM, 48 h",,growth percent,-93.6%
Cc1cc(C)n(-c2nc(-c3ccc(Cl)cc3)c3c(NC(=O)c4ccccc4)nnc-3[nH]2)n1,SRB,"10 µM, NCI60 single-dose screen",relative to: untreated,cell growth,48.4%
CCOc1ccc(-c2nc3cc(-c4nc5cc(N6CCN(C)CC6)ccc5[nH]4)ccc3[nH]2)cc1OCC,SRB,"10 µM, 48 h",,growth percent,6.64%
C#C[C@@]1(O)[C@@H](CO)O[C@@H](n2cc(I)c3c(N)ncnc32)[C@@H]1O,SRB,NCI-60 screen,,TGI,1810 nM and 2180 nM
Cc1n[nH]c2nc(-c3ccc(Cl)cc3)c3c(NC(=O)c4ccccc4)nnc-3n12,SRB,"10 µM, NCI60 single-dose screen",relative to: untreated,cell growth,110%
CCCCN1CCN(c2ccc3[nH]c(-c4ccc5[nH]c(-c6cc(OC)c(OC)c(OC)c6)nc5c4)nc3c2)CC1,SRB,"10 µM, 48 h",,growth percent,38.7%

# Some of these lines once more:
Structure (SMILES),assay,setting,scale,quantity,result
CCCN1CCN(c2ccc3[nH]c(-c4ccc5[nH]c(-c6ccc(C(F)(F)F)cc6)nc5c4)nc3c2)CC1,SRB,"10 µM, 48 h",,growth percent,32.5%
O=C1NCCc2[nH]c(-c3ccncc3)cc21,MTS,NCI60 panel,,IC50,6140 nM
